Measurements pooled from the literature.
Compare with care: the assays were run in different laboratories. Several values in a cell are separate wells, animals, samples, runs or records. Numbers after ± are the reported error.

The UACR of `Cc1cc(F)cc2c(CCC(=O)N[C@@H]3C(=O)NC[C@H]3O)c(-c3ccc(F)cc3)[nH]c12` is reported as 40.8 µg/mg and 13.7 µg/mg and 41.1 µg/mg and 9.99 µg/mg and 25.9 µg/mg and 28.4 µg/mg (mice, APOL1 G2, single copy; day 0, before treatment, together with: IFNγ plasmid injection).
For `COc1ccccc1[C@H](Cn1c(=O)n(C(C)(C)C(=O)O)c(=O)c2c(C)c(-c3ncco3)sc21)OC1CCOCC1`, the serum adiponectin was 5.47 ± 2.24 µg/mL (human; 50 mg, post-treatment).
`N#Cc1ccn2c(-c3ccncc3)c(-c3ccc(F)cc3)nc2c1` — result for “log2 fold change”: -0.00826 (kinase binding, competitor, MIB/MS competition, measured: RIM8; Candida albicans cell lysate; 1 µM; relative to: DMSO).
`COc1cc(F)c([C@@H]2CNC(=O)[C@H]2NC(=O)Nc2ccccc2)c(F)c1`: “isovolumic relaxation time” 12 ± 2 ms (LV haemodynamics; rat, myocardial ischaemia-reperfusion; 1 mg/kg, 1008 h, 6 weeks post-injury).
Under “paw edema volume”, `CN(O)N=Nc1ccc(S(=O)(=O)Nc2nccs2)cc1` is recorded as 3.21 ± 0.82 a.u. (carrageenan-induced paw edema; Wistar rat; oral, 100 mg/kg, 0 h (baseline), together with: carrageenan 1% subplantar; higher = more edema).
The metabolite level of `C[C@@H](O)CCOC(=O)C[C@@H](C)O` is reported as -2.26 ± 0.76 µmol/L (measured: C4-OH acylcarnitine; human, plasma; 60 min, log2-transformed values).
The sarcomere length of `O=C(O)CNC(=O)Cc1ccccc1` is reported as 1.72 µm (ventricular cardiomyocytes, C57BL/6 mouse; dose not given, 0.672 s).
Under “tumour volume difference”, `C=CCn1c(=O)c2cnc(Nc3ccc(N4CCN(C)CC4)cc3)nc2n1-c1ccc2c(n1)[C@@](O)(CC)CC2` is recorded as 153 ± 22.7 mm3 (OVCAR-3 xenograft, NOD/SCID mice; oral, 80 mg/kg, day 32, once daily intermittent).
For `COc1ccc(-c2cncc(N[C@@H](C)c3cccc(NC(=O)c4cncc(C)c4)c3)n2)cc1OC`, “delta delta Ct” read -0.773 (measured: rno-miR-192-5p; rat SU5416/hypoxia model, lung; dose not given, unit not given; relative to: SU5416/hypoxia vehicle).
`N#Cc1ccc2c(-c3ccncc3)c(-c3ccc(F)cc3)nn2c1` — result for “log2 fold change”: 0.00305 (kinase binding, competitor, MIB/MS competition, measured: CDC7; Candida albicans cell lysate; 100 nM; relative to: DMSO).
For `CC(C)C[C@H](NC(=O)[C@@H](Cc1c[nH]c2ccccc12)NC(=O)[C@H](Cc1ccc(O)cc1)NC(=O)[C@H](CO)NC(=O)[C@H](Cc1c[nH]c2ccccc12)NC(=O)[C@H](Cc1c[nH]cn1)NC(=O)[C@@H]1CCC(=O)N1)C(=O)N[C@@H](CCCNC(=N)N)C(=O)N1CCC[C@H]1C(=O)NCC(N)=O`, “boys at genital stage” read 50% (Chinese boys, central precocious puberty; intramuscular, 22.5 mg day 1, month 6, month 6, unchanged Tanner stage III; relative to: screening).
For `Cc1n[nH]c2ccc(-c3cc(OC[C@@H](N)Cc4ccccc4)cnc3-c3ccoc3)cc12`, “log2 fold change” read -0.0445 (kinase binding, competitor, MIB/MS competition, measured: FPK1; Candida albicans cell lysate; 1 µM; relative to: DMSO).
The stable disease of `Cc1ccc(NC(=O)c2ccnc(C(F)(F)F)c2)cc1-c1cc(OCCO)nc(N2CCOCC2)c1` is reported as 34.5% (MAPK-altered advanced solid tumour patients; dose not given, single-agent dose escalation).
Under “inhibition of platelet aggregation”, `NCC(=O)Nc1cncc(-c2nn3c(=O)cc(N4CCNCC4)nc3s2)c1` is recorded as 3% (ADP-induced platelet aggregation, light transmission aggregometry; stable CAD patients on aspirin; subcutaneous, 0.04 mg/kg, 180 min post-dose, together with: ADP 20 µM).
Under “paw edema volume”, `O=S(=O)(Nc1nccs1)c1ccc(N=NN(O)c2ccccc2)cc1` is recorded as 4.43 ± 0.76 a.u. (carrageenan-induced paw edema; Wistar rat; oral, 100 mg/kg, 4 h after carrageenan, together with: carrageenan 1% subplantar; higher = more edema).
For `Cc1noc(C)c1-c1cc(C(O)(c2ccccn2)c2ccccn2)c2nc(C3CC3)[nH]c2c1`, the maximum inhibition was 39% (measured: CCR2 expression; human, peripheral blood; 6 mg, day 1, 1604 study).
`O=C(O)c1cc(-c2ccc(-c3cc[nH]n3)cc2)c2ccc(-c3ccc(C(F)(F)F)cc3)cc2c1` — result for “paw withdrawal threshold”: “no effect” (von Frey; ICR mouse, male, CCI model; dose not given, contralateral paw).
`CCCCC1(CCCC)CN(c2ccccc2)c2cc(SC)c(OCC(=O)N[C@@H](C(=O)NCC(=O)O)c3ccccc3)cc2S(=O)(=O)C1` has a plasma C4 of 64.8 ng/mL (measured: 7α-hydroxy-4-cholesten-3-one; human, plasma; 5 mg once daily, day 8).
For `Cc1cccc(N(O)N=Nc2ccc(S(=O)(=O)Nc3nccs3)cc2)c1`, “paw edema volume” read 5.23 ± 0.36 a.u. (carrageenan-induced paw edema; Wistar rat; oral, 100 mg/kg, 3 h after carrageenan, together with: carrageenan 1% subplantar; higher = more edema).
The marrow blasts of `CCCNc1nc(Nc2ccc(C#N)cc2)ncc1C#CCCCNC(=O)[C@H](C)N(C)C(=O)/C=C/CN(C)C` is reported as 1% (human; 50 mg twice daily, after 4 cycles).
`COc1cc(/C=C/C(=O)N2CCC=CC2=O)cc(OC)c1OC` has a mRNA level of 0.474 (qRT-PCR, measured: Bcl-xL; nude mouse, 468 xenograft, tumour; 15 mg/kg, 21 days, unit not given; relative to: β-actin, vehicle).
The sarcomere length of `CC(C)NCC(O)c1ccc(O)c(O)c1` (centres unmarked) is reported as 1.72 µm (ventricular cardiomyocytes, C57BL/6 mouse; dose not given, 0.372 s).
`COc1ncnn2ccc(-c3cnc4nc(C)n(Cc5nnc([C@@H](C)F)o5)c4c3)c12` — result for “complete remission rate”: 25% (relapsed or refractory AML patients; dose not given).
`N#Cc1ccc2c(c1)[C@H]1CCCN(C(=O)c3ccc4[nH]cnc4c3)[C@H]1C2` has an androstenedione level of 8.35 nmol/L (human clinical trial, male; oral, 240 mg once daily, at last treatment).
`Cc1cn(-c2ccc3n(c2=O)CCN([C@@H](C)[C@@H]2CC[C@H](c4cc(F)c(Cl)cc4C(F)(F)F)O2)C3=O)cn1` — result for “CSF Aβ42 change”: -64.8% (human, CSF; 360 mg once daily, 14 days, multiple dose, single LP; relative to: placebo).
`Cc1cc(NS(=O)(=O)c2ccc(N=NN(C)O)cc2)no1` — result for “paw edema volume”: 5.1 ± 0.41 a.u. (carrageenan-induced paw edema; Wistar rat; oral, 100 mg/kg, 2 h after carrageenan, together with: carrageenan 1% subplantar; higher = more edema).
`NC(=O)c1cnc2[nH]ccc2c1N[C@@H]1[C@@H]2CC3C[C@H]1C[C@@](O)(C3)C2` gave a percent change of -1.43% (CD8+ naive T cells, flow cytometry; Japanese humans, peripheral blood; 60 mg single dose; relative to: baseline).
`COc1cc2cc(-c3ccc(CC(=O)Nc4cc(C(C)(C)C(F)(F)F)no4)cn3)cnc2cc1OC`: “best overall response PR” 50% (RECIST v1.1; human RET-altered solid tumours; 13 100 mg tablets, phase I).
With `Cc1ccc(C(=O)OCc2ccc([C@@H](CN)C(=O)Nc3ccc4cnccc4c3)cc2)c(C)c1` the IOP was 37.5 mmHg (tonometry; NZW rabbit, magnetic bead-induced ocular hypertension; ocular, 0.02%, 24 h).
With `COc1nc(NCc2cn(-c3ccc(NC(=O)c4ccc(Cl)cc4)cc3)nn2)nc(OC)n1` the IC50 was 18.3 ± 8.52 nM (cell viability, MTT; normal colonocytes, rat; 72 h).
`CC#CC(=O)N[C@H]1CCCN(c2c(F)cc(C(N)=O)c3[nH]c(C)c(C)c23)C1` has a serum immunoglobulin of -5.7 % change (measured: IgM; human; 10 mg once daily, day 21; relative to: baseline).
Under “pathway activation z-score”, `Cn1cc(Nc2nccc(-c3ccc4c(c3)CN(C3COC3)CC[C@H]4NC(=O)c3cn(C(C)(C)C)nn3)n2)cn1` is recorded as 3.83 (measured: Senescence Pathway; splenic B cells, mouse; in vivo, 30 mg/kg, IgD-activated B cells; relative to: vehicle, positive = activation).
`O=C(OC(C(F)(F)F)C(F)(F)F)N1CCN(Cc2cccc(Oc3ccccc3)c2)CC1`: “tracer distribution volume” 1.56 mL/cm3 (PET; rhesus monkey, frontal cortex; intravenous, 0.3 mg/kg, pretreatment blocking, together with: [18F]T-401).
`Cc1noc(NS(=O)(=O)c2ccc(N=NN(C)O)cc2)c1C`: “paw edema volume” 4.42 ± 0.83 a.u. (carrageenan-induced paw edema; Wistar rat; oral, 100 mg/kg, 4 h after carrageenan, together with: carrageenan 1% subplantar; higher = more edema).
For `CC(=O)Oc1cc2c(s1)CCN(C(C(=O)C1CC1)c1ccccc1F)C2` (centres unmarked), “patients with IPA above 80%” read 0% (light transmittance aggregometry; human patients, platelet-rich plasma; dose not given, 30 min, together with: ADP 20 µM; relative to: patients).
`CCCN(O)N=Nc1ccc(S(=O)(=O)Nc2nccs2)cc1` — result for “paw edema volume”: 5.93 ± 0.81 a.u. (carrageenan-induced paw edema; Wistar rat; oral, 100 mg/kg, 2 h after carrageenan, together with: carrageenan 1% subplantar; higher = more edema).
`CN(C)C(=O)c1cc2cnc(Nc3ccc(N4CCNCC4)cn3)nc2n1C1CCCC1`: “GSEA enrichment score” -0.267 (RNA-seq GSEA, measured: HALLMARK_PROTEIN_SECRETION; MB002 tumour; concentration not given, in vivo; relative to: vehicle, direction not given).
`OC(CCN1CCCCC1)(c1ccccc1)C1CC2C=CC1C2` (centres unmarked): “change in EEG Alpha1-power Pz-O1” 4.6% (resting-state EEG; healthy elderly humans; oral, 2 mg, eyes open, LS mean; relative to: baseline).
